{"data": "Experimental data gathered from unrelated publications", "note": "Parts stem from different laboratories: compare values within a part only."}
{"data": "Sample 1", "target": "Histone acetyltransferase KAT6A, winged helix 1, GST fusion (KAT6A, Homo sapiens, UniProt Q92794, residues 1-85)", "method": "protein binding microarray", "form": "double-stranded DNA, one strand shown", "medium": "in vitro", "tested at": "not given", "notes": "8-mer, flanks averaged, mean of 2 arrays, mostly near background", "baseline": "not given", "reading": "higher = stronger binding", "Construct (chain)": "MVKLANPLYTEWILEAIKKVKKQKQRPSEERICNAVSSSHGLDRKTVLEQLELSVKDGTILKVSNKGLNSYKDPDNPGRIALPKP"}
{"Sequence": "AGCTGTGC", "E-score": -0.129}
{"Sequence": "CGTAACAA", "E-score": 0.0681}
{"Sequence": "TCCGAGAA", "E-score": -0.0205}
{"Sequence": "CCGTATCA", "E-score": 0.253}
{"Sequence": "TGGCCCAA", "E-score": -0.207}
{"Sequence": "CCCAGGGA", "E-score": -0.181}
{"Sequence": "GAGGGGAA", "E-score": -0.0959}
{"Sequence": "GGTAGTTA", "E-score": -0.00808}
{"data": "Sample 2", "target": "Hepatocyte nuclear factor 3-beta, forkhead domain (FOXA2, Homo sapiens, UniProt Q9Y261, residues 142-269)", "method": "protein-binding microarray", "form": "hairpin DNA", "medium": "in vitro", "tested at": "not given", "notes": "whole hairpin DNA, median over replicate spots", "baseline": "not given", "reading": "higher = stronger binding", "Target sequence (chain)": "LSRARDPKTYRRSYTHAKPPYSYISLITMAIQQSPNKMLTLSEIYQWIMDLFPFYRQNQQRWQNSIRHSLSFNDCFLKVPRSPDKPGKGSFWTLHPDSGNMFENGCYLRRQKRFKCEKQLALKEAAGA"}
{"Sequence": "GAGGCCATGCGACCAACGCCTCCTGGCGTTGGTCGCATGGCCTCACACTC (5mC at 34)", "median fluorescence": "3380 a.u."}
{"Sequence": "GAGGCCATGCAAACGACGCCTCCTGGCGTCGTTTGCATGGCCTCACACTC (5mC at 14 30)", "median fluorescence": "3680 a.u."}
{"Sequence": "GAGGCCATTTAACCAACGCCTCCTGGCGTTGGTTAAATGGCCTCACACTC", "median fluorescence": "2880 a.u."}
{"Sequence": "GAGGCCCGGTAAACAACGCCTCCTGGCGTTGTTTACCGGGCCTCACACTC (5mC at 7)", "median fluorescence": "3940 a.u."}
{"Sequence": "GAGGCCATGCAAACAAAGCCTCCTGGCTTTGTTTGCATGGCCTCACACTC", "median fluorescence": "3760 a.u."}
{"Sequence": "GAGGCCAAGCAAACAACGCCTCCTGGCGTTGTTTGCTTGGCCTCACACTC", "median fluorescence": "3900 a.u."}
{"Sequence": "GAGGCCATGCAAGCAACGCCTCCTGGCGTTGCTTGCATGGCCTCACACTC", "median fluorescence": "3240 a.u."}
{"Sequence": "GAGGCCACGTAACCAACGCCTCCTGGCGTTGGTTACGTGGCCTCACACTC", "median fluorescence": "3250 a.u."}
{"data": "Sample 3", "target": "Hepatocyte nuclear factor 3-beta, forkhead domain (FOXA2, Homo sapiens, UniProt Q9Y261, residues 142-269)", "method": "protein-binding microarray", "form": "double-stranded DNA, one strand shown", "medium": "in vitro", "tested at": "not given", "notes": "k-mer, scored over probes, only values ≥0.25", "reading": "higher = stronger binding", "Target sequence (chain)": "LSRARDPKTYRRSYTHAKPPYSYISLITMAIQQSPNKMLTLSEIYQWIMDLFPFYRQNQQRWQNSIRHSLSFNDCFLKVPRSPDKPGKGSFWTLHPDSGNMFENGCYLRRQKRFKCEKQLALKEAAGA"}
{"Sequence": "GTGCTATA", "E-score": 0.251}
{"Sequence": "ATAGCAAA", "E-score": 0.268}
{"Sequence": "TATGTACA", "E-score": 0.41}
{"Sequence": "AATGTTGT", "E-score": 0.259}
{"Sequence": "AATATGCT", "E-score": 0.307}
{"Sequence": "AACTCACA", "E-score": 0.256}
{"Sequence": "CAGATAAC", "E-score": 0.27}
{"Sequence": "ATCATCAT", "E-score": 0.257}
{"data": "Further values, each from its own experiment"}
{"Compound": "COc1ccc(/C=C/c2nc(S(=O)(=O)c3ccccc3)c(N(C)C)o2)cc1", "system": "mouse, microsomes or S9", "setting": "2 µM, 0.5 h", "endpoint": "remaining compound", "result": "13%"}
{"note": "Excerpt of the above (sample 2):"}
{"Sequence": "GAGGCCATGCAAACGACGCCTCCTGGCGTCGTTTGCATGGCCTCACACTC (5mC at 14 30)", "median fluorescence": "3680 a.u."}
{"Sequence": "GAGGCCATTTAACCAACGCCTCCTGGCGTTGGTTAAATGGCCTCACACTC", "median fluorescence": "2880 a.u."}
{"Sequence": "GAGGCCCGGTAAACAACGCCTCCTGGCGTTGTTTACCGGGCCTCACACTC (5mC at 7)", "median fluorescence": "3940 a.u."}
{"Sequence": "GAGGCCATGCAAACAAAGCCTCCTGGCTTTGTTTGCATGGCCTCACACTC", "median fluorescence": "3760 a.u."}
